Assay results of several laboratories.
A part holds a random share of what one study measured. Substitutions count along the parent as printed.

Series 1
Target: Histone acetyltransferase KAT6A, both winged helices, GST fusion (KAT6A, Homo sapiens, UniProt Q92794, residues 1-181)
Method: protein binding microarray
Form: double-stranded DNA, one strand shown
Medium: in vitro
Concentration: not given
Setting: 8-mer, flanks averaged, mean of 2 arrays, mostly near background
Baseline: not given
Direction: higher = stronger binding
Construct (chain): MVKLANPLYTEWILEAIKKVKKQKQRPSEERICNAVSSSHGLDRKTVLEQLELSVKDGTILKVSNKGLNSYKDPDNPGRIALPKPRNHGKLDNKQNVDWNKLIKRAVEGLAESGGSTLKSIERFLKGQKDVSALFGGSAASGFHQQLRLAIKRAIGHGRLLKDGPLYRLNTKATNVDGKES
| Sequence | E-score |
| --- | --- |
| ATGCGTAG | 0.13 |
| AGTGATGA | -0.234 |
| AATTATAG | -0.0249 |
| TCGCCCGA | 0.124 |
| AATGGCGC | 0.241 |
| AAATTAGA | -0.0824 |
| CTATCGGA | 0.121 |
| GGGATCAA | -0.0522 |
| GGTAGTGA | -0.085 |
| ATTGGATG | -0.129 |
| TCCGCTCA | 0.0506 |
| AATAATTA | -0.0639 |
| AGCCCCCC | -0.296 |
| CGTCGTCC | 0.16 |
| CCTGAGTC | 0.0226 |
| AATCGAAT | -0.0189 |
| GCCGGTAA | 0.259 |
| ATCCCGGG | 0.241 |
| GCAAAAAC | 0.0867 |
| ACAGTGTA | -0.137 |
| TGAACAAA | 0.05 |
| GACGGGCC | 0.303 |
| GCTCCTCA | -0.101 |

Series 2
Target: ABI1, truncated, D143A, DHFR fusion (Arabidopsis thaliana)
Method: DHFR PCA, deep sequencing
Medium: yeast
Setting: methotrexate growth selection, single substitutions
With: (+)-ABA 4.8 µM
Baseline: wild-type fitted maximum
Direction: higher = stronger binding
Starting sequence: PYL1, truncated, DHFR fusion (Arabidopsis thaliana); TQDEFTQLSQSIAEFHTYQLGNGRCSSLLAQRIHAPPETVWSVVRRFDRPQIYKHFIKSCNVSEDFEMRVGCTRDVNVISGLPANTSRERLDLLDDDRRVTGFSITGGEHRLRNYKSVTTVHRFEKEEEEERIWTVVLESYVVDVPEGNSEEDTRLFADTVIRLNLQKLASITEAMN
| Variant | relative binding score [%] |
| --- | --- |
| F5R | 66 |
| V44H | -12 |
| R163Q | 53.9 |
| H16E | -10.4 |
| D153H | -1.71 |
| A35F | -12.2 |
| A84F | 58.7 |
| E109T | 58.6 |

Series 3
Target: RNA binding protein fox-1 homolog 2, RRM domain, GST-SBP tag (RBFOX2, Homo sapiens, UniProt O43251-10, residues 100-194)
Method: RNA Bind-n-Seq
Form: RNA
Medium: in vitro
Concentration: 365 nM
Setting: natural RNA segment, single round, ends assumed
Baseline: no-protein control
Direction: higher = stronger binding
All sequences stand within: GGGAGUUCUACAGUCCGACGAUC … UGGAAUUCUCGGGUGCCAA
Target sequence (chain): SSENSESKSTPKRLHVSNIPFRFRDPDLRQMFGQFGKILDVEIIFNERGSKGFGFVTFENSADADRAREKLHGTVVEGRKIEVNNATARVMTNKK
| Sequence | RBNS enrichment (R) |
| --- | --- |
| AUGUUGAAUUUUAUUGACUUAAUUGGUCUGUAGAUAUGAAAGCAUCUUCUAAGGAGUUUUAGAUUUAGAUAUUUCUCUCCGCUUUAAAAAAAAAUAAAAUUUGAGUGGAA | 0.703 |
| GAGGCAGCCAUUAGGCUGUAGGCCUGCUUACUGCAUAGCACUGGACGUGCCAGGCACAUUCUGGCCCCUGGCAUGCUUAAGUAACUAGGUUUUCAAAUGUGGGAAACCAA | 0.367 |
| GCAGAGAAACCUUUCCUCGACCACUCUUUAUUGAGGUACCCUGGUCACACUGAUGGCAGGACACACAAGAGCAGGGUAUUGGUCUGCCCUUCUUCCUCCUGUCCGUCUGA | 0.348 |
| UUAUAGUCACGAAGUUCUACUUCCAGGAAGACCAUAGUACUGCCGAGGCCUGUAAUAAUCACCAACUGCCUGAUCACUCUGGCCAUCAUUGGGGCCUGAGGAACAACUUU | 0.229 |
| GUGACCACAUACGUGUUAGGAGGCUGCAUGCUCUGGAAGCCUGGACUCUAAGCUGGAGCUCUUGGAAGAGCUCUUCGGUUUCUGAGCAUAAUGCUCCCAUCUCCUGAUUU | 2.96 |
| GGCCUGUGCCCCUAAACACUACAUUAGACAGUGACACCCAAAGGUUUUCUUAGGAGGGUGUCUGGCAGAGACAGGCCAGCCCCCACUUGCUGGCCAGGGGUCCCUUGGGG | 0.474 |
| CUACCCCAGAGAGCCUUGAAGUUCCUGAAGUCACAGAGGAUGUAGACCGUGCCACCACAUGCCAGGUUAUCAAGCACCAGCAGCUGAUGGAACAGGCUGUGGCCCCUGAG | 0.267 |
| CAGGAAAAGUGGGUUGUCUUUGCCCCUCAAAGUCCACCUACCUAGAAACCAAGCCCACGGUCUUGGCCGUGACCCUGAUAAUAAAUGGGCUCUCUCAGAGGCGCCAGCCC | 0.347 |
| GAACUAGGACUUUCCUCUGUGAAGAGGAUGCCUCUGAAGAAAUUUUAAACUGGUGAUUUUGGUUGCACUGCUCACUUUAAGAGUUAACAUGCUCACUUGUUAGUAUUUCU | 0.904 |
| AAAGGCCCUGCGUGGUCAGGCCUGGUUCUGUGACCUGGAAGGUGACAAGCCAUCCAUCCCCCAUGGGAGAGGAGACAGUGUGGCAUCUGGGCCCAGCCCAGGGUCUGACU | 0.189 |
| GGCUGCAGAGACCUUGCGACCAUGUGUAGAUUGCGUGGACCCCGACAAAGGGAAGGCUGCUGUGUAGCUCUGUCCACUCUGAAUACCAAGUGUGUUGGGAAUUGCAUGCC | 1.62 |
| AAAACUGAGCUAUGUUUGAACAAAGAUGUCGUGCAAACUGUACUGUGAACAACAGUUGGUUUAAAAUAUGAGGGGCAAGGAGGAGGAUGCAUUUCAAAAGCUUGAUUGAU | 12.2 |

Series 4
Target: CCNA2, cyclin fold, Cln2 fusion (human)
Method: yeast growth competition, sequencing
Medium: yeast
Setting: strong parent motif
Baseline: not given
Direction: higher = stronger binding
Starting sequence: CDKN1A docking peptide (human); SKACRRLFGPVDS; partner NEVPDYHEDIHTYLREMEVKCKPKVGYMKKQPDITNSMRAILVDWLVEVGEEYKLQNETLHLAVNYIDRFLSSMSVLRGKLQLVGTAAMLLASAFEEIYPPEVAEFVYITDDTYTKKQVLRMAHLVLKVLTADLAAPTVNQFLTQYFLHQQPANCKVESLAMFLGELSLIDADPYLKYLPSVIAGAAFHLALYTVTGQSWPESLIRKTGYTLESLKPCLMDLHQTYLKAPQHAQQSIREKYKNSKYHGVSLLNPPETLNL
| Variant | normalised enrichment score |
| --- | --- |
| SKACRDLFGPVDS [R6D] | 1.3 |
| SKACRRLFGPVGS [D12G] | 5.31 |
| SKANRRLFGPVDS [C4N] | 3.28 |
| SKACKRLFGPVDS [R5K] | 5.33 |
| SKKCRRLFGPVDS [A3K] | 1.4 |
| SKACRRLFSPVDS [G9S] | 5.5 |
| SKATRRLFGPVDS [C4T] | 3 |
| SKACGRLFGPVDS [R5G] | 0.512 |
| SKACRRLFYPVDS [G9Y] | 6.49 |
| SKACRRLFGPVAS [D12A] | 4.89 |
| SKACRILFGPVDS [R6I] | 3.14 |
| SKVCRRLFGPVDS [A3V] | 6.22 |
| SQACRRLFGPVDS [K2Q] | 4.89 |
| SKACRRLFGPQDS [V11Q] | 6.08 |
| SKACRRLFGPVTS [D12T] | 5.55 |
| SIACRRLFGPVDS [K2I] | 4.4 |

Series 5
Target: Interferon regulatory factor 5, full length, phosphomimetic (IRF5, Homo sapiens, UniProt Q13568-2, residues 1-514, S451D/S453D/S456D/S462D)
Method: protein-binding microarray
Form: double-stranded DNA, one strand shown
Medium: in vitro
Concentration: 940 nM top
Setting: 60-bp whole probe
With: salmon DNA 0.4 mg/ml
Baseline: random background probes
Direction: higher = stronger binding
All sequences stand within: GCCTAGCAC … GTCTTGATTCGCTTGACGCTGCTG
| Sequence | fitted relative affinity [z-score] |
| --- | --- |
| GAAAGGTACCATGGTGGCTCGTGCTAG | -0.27 |
| GACGGTCTCGGACTCGGGACGTGCTAG | 0.658 |
| TTAGGACTGCTTTTCCGTTAGTGCTAG | -0.29 |
| ACATGCTTCGAGATCTCCGAGTGCTAG | -0.23 |
| TTAGGTCTCCATATCCTTTAGTGCTAG | 0.621 |
| ATGCTGGTCACTCTCTGGGCGTGCTAG | -0.455 |
| GACGGTCTCCTTCTCCAGACGTGCTAG | 0.58 |
| GACTGTTTCGACTATCGGGACGTGCTA | 3.72 |
| TTAGGTTTCAACTTTCGGTTAGTGCTA | 4.41 |
| TTAGGACTGCTTCTCCTTTGGTGCTAG | -0.31 |
| TTAGGTATCCTGCTGCTTTAGTGCTAG | 0.0805 |
| GACGGTTTACTTATCCTGACGTGCTAG | -0.0317 |
| GACGGACTGGACTATCGGGAGGTGCTA | -0.226 |
| GACGGACTGGGTTTCGGGAAGTGCTAG | 2.44 |
| TCTCTGTTCTTTTCAGTCCCGTGCTAG | 6.32 |
| TTAGACTTCGGGTTTCGATTAGTGCTA | 5.14 |
| TCCAAATTGTCTCTGTCCCTGTGCTAG | 1.29 |
| AGTTCTCTAGAAATTCCCACGGTGCTA | 0.606 |

Series 6
Target: RING finger protein unkempt homolog, zinc fingers 1-6, GST-SBP tag (UNK, Homo sapiens, UniProt Q9C0B0, residues 30-357)
Sequence of UniProt Q9C0B0 (30-357, looked up): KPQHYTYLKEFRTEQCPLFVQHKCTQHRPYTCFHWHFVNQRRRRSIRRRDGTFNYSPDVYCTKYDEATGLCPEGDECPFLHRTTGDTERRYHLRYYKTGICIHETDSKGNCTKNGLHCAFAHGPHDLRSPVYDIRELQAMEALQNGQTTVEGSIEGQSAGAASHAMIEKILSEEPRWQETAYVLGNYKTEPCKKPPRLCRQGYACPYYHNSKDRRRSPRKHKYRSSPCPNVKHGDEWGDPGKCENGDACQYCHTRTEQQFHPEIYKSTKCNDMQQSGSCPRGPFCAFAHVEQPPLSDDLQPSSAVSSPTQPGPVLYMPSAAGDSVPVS
Method: RNA Bind-n-Seq
Form: RNA
Medium: in vitro
Concentration: not given
Setting: RNA with constant flanks, ends assumed
Baseline: input RNA pool
Direction: higher = stronger binding
All sequences stand within: GGGAGUUCUACAGUCCGACGAUC … CAACAGAGGAUUGAGCAUCA
| Sequence | bound/input enrichment [ratio] |
| --- | --- |
| UCUUUUCCUCUGUAUUUACAUAUACUUUAUGUAUCAAGUGUGUGUGUGUAUGUGUGUGCUUUCCGCUCCAAGCAAACCUGAGUUUGGAUAAAGGGGAACUAAACUACAAAUUAUGUCUAU | 0.158 |
| AUGGGCCUAUUUGUUUGGUGCUGGCACCAACUCGGGAACUGGCCCAACAGGUGCAGCAAGCCGCUGCUGAAUAUUGUAGAGCAUGUCGCUUGAAGUCUACUUGUAUCUACGGUGGUGCUC | 0.181 |
| UCUAUCACUGAUGCUAAAAGUUGUGAGGGACAAAAUCCUGAGCUACUUCCAAAAACUCCUAUCCGUCCUCUGAAAACGGGGGUAUCGAAACCAAUUGUGAAGUCAACUUUAUCCCAGACA | 0.188 |
| CGUUCUCUGCCACCUCCUUCCCCUGCCCACUUGGCUGCUUUAAGUGUUGCAGUCAUUGAAUCCGCAAAAGAACAUGGAAUAACAGAUGAUGACCUCAGAGUCCGUCAGGAAAUUGUGGAG | 0.177 |
| UCAUUGUACUGCAAAAAUCAUCCUCGUUUUAAAUUAGCCACAGUGAUAACUAGUCUGCACCCGCCGAAUCAUUUACCUUUUAAAUUAUCUGCUUUGUCUGAUACCUGAAACACAUCAAAA | 4.04 |
| AAUUGUGGCGAAUCAGAAGGAUUGUCAUGGCAUGGUAGAAUGUAUAUUGCUUGUCUCUCUACCGAAUAAUUUAAAAAUGACCACACCGAACAAGACACCUCCUGGUGCUGAUCCUAAGCA | 0.163 |

Excerpt of the above (series 1):
| Sequence | E-score |
| --- | --- |
| AATCGAAT | -0.0189 |
| GCCGGTAA | 0.259 |
| ATCCCGGG | 0.241 |
| GCAAAAAC | 0.0867 |
| ACAGTGTA | -0.137 |
| TGAACAAA | 0.05 |
| GACGGGCC | 0.303 |
| GCTCCTCA | -0.101 |
